Measurements from different studies.

SMILES = CN1CCN(c2cccc3c2CCN(C(=O)/C=C/c2c(-n4cnnn4)ccc(Cl)c2F)[C@@H]3C(=O)Nc2ccc(C(=O)O)cc2)C(=O)C1; system = healthy human subjects; conditions = intravenous infusion, 3 mg/h, 5 days; endpoint = subjects with infusion site pain; result = 12.5%
SMILES = C[C@H]1CN(C(=O)CC#N)[C@]12CCN(c1ncnc3[nH]ccc13)C2; system = healthy human; conditions = oral, 6 mg single; endpoint = subjects with TEAEs; result = 25%
SMILES = Cc1cc(-c2nccc3c2ccn3CC(=O)Nc2ccc(-c3cnccn3)cn2)ccn1; system = human; conditions = SAD part, single 20 mg dose; endpoint = subjects with Dizziness TEAEs; result = 0%
SMILES = CC(C)n1c(Nc2cccnc2)nc2cnc(Nc3ccc(N4CCN(C)CC4)cc3)nc21; assay = refers to: any TEAE; system = healthy human, male; conditions = oral, dose not given, CTCAE grade 1-3; endpoint = subjects with TEAE; result = 71.4%
SMILES = Cc1cc(Nc2cc3ncccc3c(N[C@@H]3C[C@H]4CC[C@@H](C3)N4CCC#N)n2)n[nH]1; system = healthy human; conditions = oral, 10 mg multiple doses, 14 days; endpoint = subjects with contact dermatitis; result = 50%
SMILES = CC(C)(C(=O)N1CCOc2c(C#N)cncc2C1)C(F)F; assay = refers to: phlebitis; system = human, both sexes; conditions = oral, 20 mg twice daily, 14 days, multiple ascending dose; endpoint = subjects with TEAE; result = 0%
SMILES = CNC(=O)c1ccc(-c2cnc3ncc(Cc4ccc5ncccc5c4)n3n2)cc1F; system = healthy human subjects; conditions = oral, 200 mg, Hypertension, grade 3, all causality, added: itraconazole 200 mg/day; endpoint = subjects with adverse event; result = 7.4%
SMILES = C[C@@H](Oc1ccc(S(C)(=O)=O)cc1C(=O)N1C[C@@H]2C[C@]2(c2cc(C(F)(F)F)on2)C1)C(F)(F)F; system = human; conditions = oral plus intravenous microtracer, dose not given; endpoint = subjects with related nervous disorders; result = 16.7%

Some of these lines once more:
SMILES = Cc1cc(-c2nccc3c2ccn3CC(=O)Nc2ccc(-c3cnccn3)cn2)ccn1; system = human; conditions = SAD part, single 20 mg dose; endpoint = subjects with Dizziness TEAEs; result = 0%
